Experimental data from different studies.
Parts stem from different laboratories: compare values within a part only. Substitutions count along the parent as printed.

Block 1
Target: RNA binding protein fox-1 homolog 2, RRM domain, GST-SBP tag (RBFOX2, Homo sapiens, UniProt O43251-10, residues 100-194)
Method: RNA Bind-n-Seq
Form: RNA
Medium: in vitro
Concentration: 365 nM
Setting: natural RNA segment, single round, ends assumed
Relative to: no-protein control
Reading: higher = stronger binding
Residues (chain): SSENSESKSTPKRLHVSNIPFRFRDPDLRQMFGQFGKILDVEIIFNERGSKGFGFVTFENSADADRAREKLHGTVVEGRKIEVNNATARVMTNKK
| Strand | RBNS enrichment (R) |
| --- | --- |
| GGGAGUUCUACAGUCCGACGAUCUAUUUCUUCUGACAUGGAGUGAACAUCAAUAGGAAUACUUUCAAAGAAAAUGAAAACACAGAAGCAAAGAGAAAUGUGGCACUUCACAUUUUAAACUACAGAUGGACUUGUGGAAUUCUCGGGUGCCAA | 0.518 |
| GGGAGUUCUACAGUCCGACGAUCGGUUUGUGAAGUUUCACUCGUUGCCUAAAAUGCCCGAUGCCUCGUCUCCAGACCUUGCUGCCCUUGCCUGGUCAUCUUUGUACAGUAAUUGUAAAUGGCAGUGGAGACUAUGGAAUUCUCGGGUGCCAA | 0.499 |
| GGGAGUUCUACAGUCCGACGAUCCCUCCCCCUUGCCUUUAACCUCUAGUUUAGUCUUUUCCUCCAGGCAUGAAAAAUAUGACUAACCUGUGGUGUGUCCAUUCUUCCUUAUAGGAAUUUCCUGAGUUUGCAGGUGGAAUUCUCGGGUGCCAA | 2.91 |
| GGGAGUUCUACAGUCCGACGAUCGCAUGGAAAGGCAAUAUCUCUGGUGGAAAAAACUCGUCUACAUCGACCUCCGUUUGUACAUUCCAUCACACCCAGCAAUAGCUGUACAUUGUAGUCAGCAACCAUUUUACUGGAAUUCUCGGGUGCCAA | 3.04 |
| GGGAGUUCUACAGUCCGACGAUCUUCUGUGAACAGCAUCAUAACUUCUAUCAUGGAAAGUGUACUAUAUAUAAUGUUUGUGUCAUGUAUAUGCCUAAAUUUUAAUUAUCUAUAAAUAAAACAUCUGACAUAAAUGGAAUUCUCGGGUGCCAA | 0.356 |
| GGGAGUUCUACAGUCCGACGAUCGAACCCUCCAAUUCAGGAAGUGGGAAAAGGAGCCAGGAAAUGUGCUUCUACUUUGCCAGUUAUUUCAGACAGCACUACCAAGAGGAGGUGGUCAGCACUUGUUAUUGGCCUGGAAUUCUCGGGUGCCAA | 0.741 |
| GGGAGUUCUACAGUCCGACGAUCGCACAGUUGUUACGCAUACUACAUGGUAUGUUACAAUUAGGGUUUCCUUGCCUCUUUACAGUACACUAAUCCGCCUAAAGGUGGCUGUUUGAUAUUUACCGUGAUAAUUAUGGAAUUCUCGGGUGCCAA | 0.343 |
| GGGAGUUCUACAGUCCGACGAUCUCAGGGCUCCAUUCUGGAGGGCACCACGGUGACCCGGGCCAUCUCAGUAUUGCCUGUGGGGGCCACCCCUCCACCCCCACCCCCAAGUGCCUUCGCUCUGUUUUUAUACCUGGAAUUCUCGGGUGCCAA | 0.373 |
| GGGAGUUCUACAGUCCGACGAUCCAGAAAUGGAAAAAACUCUGCAAGAGAGUCUUGCUUUCAAGGAGAAAGGAAAAUGGCUUUGAAAAUGAGACAGUCUUUGUGGGUUUUGUCGUUGGUUUUUGUUUGUUUACUGGAAUUCUCGGGUGCCAA | 1.65 |
| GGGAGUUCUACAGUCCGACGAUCUAAAAUGACCAGUUUUCAGAUUCACCUGUGCGUGUGCCCCCCACUCCCAUCCCACCCUGUUCUUUCCAUAGAACUUUUGAUAUCAGGCAAACGGUUUCCUUUUUGAGAUAUGGAAUUCUCGGGUGCCAA | 1.06 |
| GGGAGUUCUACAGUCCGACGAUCAAGCAAACCUAGAGAAUCCCAUGCGACUUGGGUAGCCUUCAGAGACCAGGCGCUUGAUUGGGUGUUCAGUAUGGAGUAGAUGAAGUGCGUAUUUAUUUAAGGCGAAAGCUUGGAAUUCUCGGGUGCCAA | 0.725 |
| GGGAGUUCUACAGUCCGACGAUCAUCUGGUCAAGUGGCGGGCCUUACUCUGGAAGGAGGCCUCAGAGGUUUCUCCACAGUCCUCUUCUGGGCAAAUUCUUGUUUCUUCACAUGCUGGACUAGCUUAAGACCAAUGGAAUUCUCGGGUGCCAA | 0.181 |

Block 2
Target: ABI1, truncated, D143A, DHFR fusion (Arabidopsis thaliana)
Method: DHFR PCA, deep sequencing
Medium: yeast
Setting: methotrexate growth selection, single substitutions
Added: (+)-ABA 4.8 µM
Relative to: wild-type fitted maximum
Reading: higher = stronger binding
Starting sequence: PYL1, truncated, DHFR fusion (Arabidopsis thaliana); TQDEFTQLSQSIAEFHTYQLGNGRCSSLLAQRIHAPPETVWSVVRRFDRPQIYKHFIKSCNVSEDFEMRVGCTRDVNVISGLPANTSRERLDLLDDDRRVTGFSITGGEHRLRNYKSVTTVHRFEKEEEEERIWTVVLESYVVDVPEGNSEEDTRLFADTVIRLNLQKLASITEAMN; partner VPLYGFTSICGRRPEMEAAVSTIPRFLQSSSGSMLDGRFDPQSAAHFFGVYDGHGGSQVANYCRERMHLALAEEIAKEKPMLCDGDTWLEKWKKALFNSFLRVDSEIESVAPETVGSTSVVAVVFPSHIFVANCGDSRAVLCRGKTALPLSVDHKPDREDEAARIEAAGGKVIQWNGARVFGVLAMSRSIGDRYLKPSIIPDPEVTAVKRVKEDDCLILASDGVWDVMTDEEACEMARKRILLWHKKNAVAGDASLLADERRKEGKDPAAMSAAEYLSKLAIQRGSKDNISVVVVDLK
| Change | relative binding score [%] |
| --- | --- |
| G108C | 7.42 |
| L166T | -1.25 |
| V137K | -29.2 |
| T39G | 18.5 |
| A35D | -2.49 |
| R49H | 54.8 |
| T17A | 38.1 |
| S42I | 13.9 |
| V121D | -6.41 |
| L29T | 12.8 |
| V62R | -1.04 |
| Q31M | 23.1 |
| G148N | 54 |
| E89T | -6.49 |
| E139Q | 71 |

Block 3
Target: Interferon regulatory factor 5, full length, phosphomimetic (IRF5, Homo sapiens, UniProt Q13568-2, residues 1-514, S451D/S453D/S456D/S462D)
Method: protein-binding microarray
Form: double-stranded DNA, one strand shown
Medium: in vitro
Concentration: 940 nM top
Setting: 60-bp whole probe
Added: salmon DNA 0.4 mg/ml
Relative to: random background probes
Reading: higher = stronger binding
Shared flanks, not repeated: GCCTAGCAC … GTCTTGATTCGCTTGACGCTGCTG
| Strand | fitted relative affinity |
| --- | --- |
| GGGTCTCTTGTTCTCTCTGGGTGCTAG | 1.43 z-score |
| CCATTTCTGTTTTTGCTTTCGTGCTAG | 2.8 z-score |
| TTAGGTATCGACACTGGGATAGTGCTA | 4.33 z-score |
| GACGGTCTCGTTATCCTGACGTGCTAG | 2.22 z-score |
| TCAATCGTAAGCAAAAAACTGTGCTAG | -0.361 z-score |
| CTGATTTTGCTTTCATTTATGTGCTAG | 1.87 z-score |
| GACGGGTTCCTTCTCCTGACGTGCTAG | 0.433 z-score |
| GACGGACTGGTACTGGGGACGTGCTAG | -0.338 z-score |
| GATGATATCAGTCTCGAGACGTGCTAG | 1.21 z-score |
| CACGATTTCAGTTTCGAGACGTGCTAG | 4.73 z-score |
| GACGATTCCAGTATCGAGACGTGCTAG | 2.25 z-score |
| GAAGGTTTCGGACTGGGGACGTGCTAG | 5.12 z-score |
| GACGGTCTCGACTATCGGGACGTGCTA | 1.46 z-score |

Mixed results
| Substance | target | assay | test system | conditions | scale | endpoint | result |
| --- | --- | --- | --- | --- | --- | --- | --- |
| PhoQ, residues 284 288 289 292 302 303 NLCILV | PhoP, residues 12 14 15 18 19 NFCKL (Escherichia coli, UniProt P23836) | Sort-seq, measured: YFP reporter | E. coli | PhoQ-PhoP variant library, added: 10 µM Mg2+ | relative to: high Mg2+ state, higher = stronger signaling | fold induction | 7.79 |

Excerpt of the above (block 1):
| Strand | RBNS enrichment (R) |
| --- | --- |
| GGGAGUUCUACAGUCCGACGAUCGCAUGGAAAGGCAAUAUCUCUGGUGGAAAAAACUCGUCUACAUCGACCUCCGUUUGUACAUUCCAUCACACCCAGCAAUAGCUGUACAUUGUAGUCAGCAACCAUUUUACUGGAAUUCUCGGGUGCCAA | 3.04 |
| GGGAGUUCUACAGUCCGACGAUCUUCUGUGAACAGCAUCAUAACUUCUAUCAUGGAAAGUGUACUAUAUAUAAUGUUUGUGUCAUGUAUAUGCCUAAAUUUUAAUUAUCUAUAAAUAAAACAUCUGACAUAAAUGGAAUUCUCGGGUGCCAA | 0.356 |
| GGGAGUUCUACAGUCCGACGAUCGAACCCUCCAAUUCAGGAAGUGGGAAAAGGAGCCAGGAAAUGUGCUUCUACUUUGCCAGUUAUUUCAGACAGCACUACCAAGAGGAGGUGGUCAGCACUUGUUAUUGGCCUGGAAUUCUCGGGUGCCAA | 0.741 |
| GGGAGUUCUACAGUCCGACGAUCGCACAGUUGUUACGCAUACUACAUGGUAUGUUACAAUUAGGGUUUCCUUGCCUCUUUACAGUACACUAAUCCGCCUAAAGGUGGCUGUUUGAUAUUUACCGUGAUAAUUAUGGAAUUCUCGGGUGCCAA | 0.343 |
| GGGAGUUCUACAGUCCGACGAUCUCAGGGCUCCAUUCUGGAGGGCACCACGGUGACCCGGGCCAUCUCAGUAUUGCCUGUGGGGGCCACCCCUCCACCCCCACCCCCAAGUGCCUUCGCUCUGUUUUUAUACCUGGAAUUCUCGGGUGCCAA | 0.373 |
